Assay results of several laboratories.
Protocols differ between the studies behind these lines. Several values in a cell are separate wells, animals, samples, runs or records. Numbers after ± are the reported error.

CCc1ccc(O)cc1  EC50 (Aedes aegypti OR13 with Orco; agonist, two-electrode voltage clamp; Xenopus oocytes): 170 nM
COc1cc2c3c(n(CCCNCCO)c(=O)c2cc1OC)-c1cc2c(cc1C3=O)OCO2  ΔTm (MYC G-quadruplex DNA; FRET melting; 2.0 µM, pH 7.0, with: K+ 10 mM): 27.2 ± 2.5 °C
CN1CCN(c2ccc(Nc3nccc(-c4cccc([N+](=O)[O-])c4)n3)cc2C(F)(F)F)CC1  remaining binding (human FLT3 ITD; 10000 nM; baseline: control): 0.55%
C[N+](C)(C)CCOP(=O)(O)O  ΔTm (SAR11_0271 Candidatus Pelagibacter sp.; differential scanning fluorimetry; concentration not given; higher = stronger binding): 3.48 °C
CC(C)CC(=O)OC[C@H]1O[C@@](C#N)(c2ccc3c(N)ncnn23)[C@H](O)[C@@H]1O  inhibition (sodium channel site 2 rat; radioligand binding; 20 µM): 7%
Oc1cccc(N2[C@@H]3CC[C@H]2CN(CCCc2ccccc2)C3)c1  Emax (mu opioid receptor; β-arrestin-2 recruitment, agonist, TRUPATH BRET; baseline: DAMGO): 8.68%
c1ccc(C(NCCNC(c2ccccc2)c2ccccc2)c2ccccc2)cc1  inhibition (GABAA central, rat; binding; 10 µM, Eurofins selectivity panel, with: flunitrazepam): -21%
COc1cccc([C@]2(C)CCN(C[C@@H](NC(=O)[C@H]3Cc4ccc(O)cc4CN3)C(C)C)C[C@@H]2C)c1  reversal of U-50488 diuresis (kappa opioid receptor; antagonist; Long-Evans rat; subcutaneous, 30 mg/kg, 1 week after dosing, with: U-50488; baseline: U-50488 alone): -98%
O=C(Nc1cccnn1)N1CCN([C@@H]2CCOc3cc(C(F)(F)F)ccc32)CC1  inhibition (GABA transporter; binding; 20 µM): -7%
C/C=C1/C(=O)C[C@H]2[C@@H]3CCC4=CC(=O)CC[C@]4(C)[C@H]3CC[C@]12C  activity (FXR; HEK293 cells; concentration not given): inactive
C[C@H](C(=O)N[C@H]1COc2ccccc2[C@@H]1S(C)(=O)=O)c1ccc(F)cc1  inhibition (sodium channel site 2, rat; binding; 10 µM, Eurofins selectivity panel): -22%
CCC(C)Nc1c([N+](=O)[O-])cc(C(C)(C)C)cc1[N+](=O)[O-] (stereo not drawn)  IC50 (anti-compound mouse monoclonal antibody; antibody binding, indirect competitive ELISA; pH 7.4, 1% methanol, with: coating antigen 0.25 µg/mL): 0.385 ng/mL
NCCc1ccc(O)cc1  ΔTm (SAR11_0271 Candidatus Pelagibacter sp.; differential scanning fluorimetry; concentration not given; higher = stronger binding): 2.15 °C and 3.85 °C
COc1cc(Nc2ncc(F)c(Nc3ccc4c(n3)NC(=O)C(C)(C)O4)n2)cc(OC)c1OC  IC50 (Trypsin): > 10000 nM
CCOC(=O)c1ccc(OC(=O)CCCCCN=C(N)N)cc1  IC50 (trypsin; enzyme activity, inhibitor): 8.88 nM
